Results pooled from the literature.
A part holds a random share of what one study measured.
UniProt P08913, sequence (whole entry, looked up): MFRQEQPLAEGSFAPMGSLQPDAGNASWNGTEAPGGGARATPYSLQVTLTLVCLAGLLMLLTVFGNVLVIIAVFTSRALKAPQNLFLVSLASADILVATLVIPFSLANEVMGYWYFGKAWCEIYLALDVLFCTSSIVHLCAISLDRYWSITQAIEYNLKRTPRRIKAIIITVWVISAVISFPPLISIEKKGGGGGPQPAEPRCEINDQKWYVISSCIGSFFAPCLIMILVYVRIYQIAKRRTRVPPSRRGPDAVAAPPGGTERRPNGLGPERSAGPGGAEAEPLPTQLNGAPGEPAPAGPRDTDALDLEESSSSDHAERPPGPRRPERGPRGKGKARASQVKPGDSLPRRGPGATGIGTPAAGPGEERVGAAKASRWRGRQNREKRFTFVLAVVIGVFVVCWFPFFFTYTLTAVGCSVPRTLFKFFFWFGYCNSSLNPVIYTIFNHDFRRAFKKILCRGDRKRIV

Sample 1 — method: protein-binding microarray; form: double-stranded DNA, one strand shown; medium: in vitro; concentration: 250 nM; setting: 60-bp whole probe; together with: salmon DNA 0.4 mg/ml; reference: random background probes; reading: higher = stronger binding; all sequences stand within: GCCTAGCAC … GTCTTGATTCGCTTGACGCTGCTG
Target: Interferon regulatory factor 5, full length, phosphomimetic (IRF5, Homo sapiens, UniProt Q13568-2, residues 1-514, K96S/S451D/S453D/S456D/S462D)
Strand	log fluorescence [z-score]
TCAGAAATCAACTTTTTTACTGTGCTA	0.907
GACGGGCTGGACTATCGGGACGTGCTA	0.434
TGGGCTGTGGGTTTGAGTCTGTGCTAG	-0.476
GCCCCTTTCCTTTGCCTCTGGTGCTAG	0.534
TTTGGTCTCCTTCTCCTTTAGTGCTAG	0.396
GACGGTCACGGACTGGGGACGTGCTAG	-0.849
GACGATATCAGGCTCGAGACGTGCTAG	0.194
GAAAGAATCACAACTAGGAAGGTGCTA	2.22

Sample 2 — method: RNA Bind-n-Seq; form: RNA; medium: in vitro; concentration: not given; setting: RNA with constant flanks, ends assumed; reference: input RNA pool; reading: higher = stronger binding
Target: RING finger protein unkempt homolog, zinc fingers 1-6, GST-SBP tag (UNK, Homo sapiens, UniProt Q9C0B0, residues 30-357)
UniProt Q9C0B0, sequence (30-357, looked up): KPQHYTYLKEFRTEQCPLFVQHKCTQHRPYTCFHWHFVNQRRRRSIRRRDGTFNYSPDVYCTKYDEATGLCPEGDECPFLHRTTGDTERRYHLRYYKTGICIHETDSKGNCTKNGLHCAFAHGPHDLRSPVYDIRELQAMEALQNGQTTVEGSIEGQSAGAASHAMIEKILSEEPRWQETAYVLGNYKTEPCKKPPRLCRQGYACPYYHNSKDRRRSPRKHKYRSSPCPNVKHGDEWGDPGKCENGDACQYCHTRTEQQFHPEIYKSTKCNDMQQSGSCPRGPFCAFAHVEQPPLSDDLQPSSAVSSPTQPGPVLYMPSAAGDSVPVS
All sequences stand within: GGGAGUUCUACAGUCCGACGAUC … CAACAGAGGAUUGAGCAUCA
Strand	bound/input enrichment [ratio]
GCUGCUUUUCACAGUUUAGUGGGUUUGGCAGCUGUACUUACUUGCAUAGCUGAGUACAUUACCGAAUAUCCACAUUUUGCUACGGAUGCAGCAGCAAAUCUCACCAAGAUUGUGGCCUAC	0.103
UAACCACAUCAAGAUGGUUGGGAAGCUGAAGCAGAACUUACUCUUGGCGUGUCUGGUGAUCCGUUCUGUGACCGUGUUUUACCUGGGCCAGCAUGCCAUGGAGUGCCAUCACCGAAUAGA	0.135
AGAUCUCAUAAAGAGAGCUCACGGUCCAGGUCAUCUCACAAAGAUUCUCCUAGAGAUGUCCGCAAAAAAGCCAAAAGAUCACCAUCUGGUUCAAGGACACCUAAAAGGUCUAGGCGAUCA	0.111
AGCAAAAAAAAAAAAAAAAAAAAAAAAAAAAAGAGUCUCACUGUGCAGCUCAGCUUGUCUUUCCGUGUGUAGGCCUGGUUGUGAUCUUCCCAUCUCCUGAGAGCUGAGAUUACCAGUGUG	0.44
CUGUGGGGACUUGACAGCAAUGCUCAUCUCUCAUGCUUCAAUUUUUCUUUUCUUACUGUUAACCGGAAAAAAAUCAACAUCUGUAAAUUAAGAAUACAGCAAUUAUCUGUACAGUACUGC	0.161
ACUGGAAAGACUCUGGUUGCCAGAGCACUUGCCAAUGAGUGCAGUCAAGGGGAUAAAAGAGCCGCAUUUUUCAUGAGGAAAGGUGCUGAUUGUCUAAGUAAAUGGGUAGGAGAAUCUGAA	0.18
UCUUACACCAUCCAGUCUGAACUGGGAGACUACGACCCAGAACUCCAUGGCGUGGAUUAUGUCCGUGAUUUUAAACUGGCCCCGAAUCAGACCAAGGAACUUGAAGAGAAGGUCAUGGAA	0.154
AAUAUCAUCCCUAGUACUUUUUUGCCUAAACAAGAAGGACCUUUUUUCUUGGACUUUAACCGUACUGUCCCCAUCAAGACAACACAACUCCAAUGAUUGAGAACUCUCAGCUAUUACUGG	0.742

Sample 3 — method: protein-binding microarray; form: double-stranded DNA, one strand shown; medium: in vitro; concentration: not given; reading: higher = stronger binding
Target: Hepatocyte nuclear factor 3-beta, forkhead domain (FOXA2, Homo sapiens, UniProt Q9Y261, residues 142-269)
Setting: k-mer, scored over probes, only values ≥0.25
Residues (chain): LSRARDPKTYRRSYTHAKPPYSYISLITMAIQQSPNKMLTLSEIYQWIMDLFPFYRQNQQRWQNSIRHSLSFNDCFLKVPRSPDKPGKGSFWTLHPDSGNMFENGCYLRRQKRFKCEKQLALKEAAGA
Strand	E-score
TACAGTAA	0.312
ACATCAAA	0.266
CTTAACAC	0.295
AATGGTAT	0.274
ACACATTC	0.25
CTTATTAC	0.26
CAATGCTA	0.27
AGACATAA	0.301

Mixed results
SMILES	target	read-out	method	concentration	endpoint	result
C[C@@]1(Cc2ccc(C#N)cc2)C(=O)N(c2cc(Cl)cc(Cl)c2)c2ncc(C(=O)NC3(c4nc(C5CCC5)no4)CC3)n21	Alpha-2A adrenergic receptor (ADRA2A, Homo sapiens, UniProt P08913)	binding	radioligand binding	10 µM	inhibition	12.1%

A few entries again (sample 1):
Strand	log fluorescence [z-score]
TTTGGTCTCCTTCTCCTTTAGTGCTAG	0.396
GACGGTCACGGACTGGGGACGTGCTAG	-0.849
GACGATATCAGGCTCGAGACGTGCTAG	0.194
